# Measured values from different studies.
# Lines come from different studies, so protocols differ. ± gives the spread as reported.
SMILES,assay,test system,setting,how to read,measurement,result
CCCC(CCC)NC(=O)c1ccc(OC2OC(C(=O)O)C(O)C(O)C2O)c(OC)c1 (centres unmarked),,"female Sprague-Dawley rats, plasma","oral, 200 mg/kg of parent drug",relative to: 200 over 20 mg/kg dose,AUC(0-last) ratio,5.49
CC(C)C[C@H](NC(=O)[C@H](Cc1ccccc1)NC(=O)[C@H](CCC(=O)O)NC(=O)[C@H](CCC(=O)O)NC(=O)[C@H](C)NC(=O)[C@H](Cc1ccccc1)NC(=O)[C@H](CCC(=O)O)NC(=O)[C@H](CCCNC(=N)N)NC(=O)[C@H](Cc1ccccc1)NC(=O)[C@H](C)NC(=O)[C@H](C)NC(=O)[C@H](Cc1ccccc1)NC(=O)[C@H](Cc1c[nH]c2ccccc12)NC(=O)[C@H](CCC(=O)O)NC(=O)[C@H](CCC(=O)O)NC(=O)[C@H](CC(C)C)NC(=O)[C@H](CCCCN)NC(=O)[C@H](CO)NC(=O)[C@H](CCCNC(=N)N)NC(=O)[C@@H](NC(=O)[C@@H](N)CCC(=O)O)C(C)C)C(=O)N[C@@H](C)C(=O)N[C@@H](CCCNC(=N)N)C(=O)N[C@@H](CC(C)C)C(=O)N[C@@H](CCCCN)C(=O)N[C@@H](CO)C(=O)O,circular dichroism,phosphate buffer,"pH 7.4, concentration range tested",,α-helical content,56.9 ± 0.8%
CC(C)NC(=O)N1CC=C(c2cc3c(Nc4cc5ncsc5cc4F)ncnc3s2)CC1,,human liver microsomes,1 µM,,intrinsic clearance,< 12 mL/min/g protein
CC(C)C[C@@H](NC(=O)[C@H](NC(=O)[C@H]1CCCN1)[C@H](C)O)C(=O)N[C@H](Cc1c[nH]cn1)C(=O)N[C@@H](C(=O)N[C@H](Cc1c[nH]cn1)C(=O)N[C@H](CC(N)=O)C(=O)N[C@H](CCCNC(=N)N)C(=O)N[C@H](CCCNC(=N)N)C(=O)N[C@H](CCCNC(=N)N)C(=O)N[C@H](CCCNC(=N)N)C(=O)N[C@H](CCCNC(=N)N)C(N)=O)[C@H](C)O,,"Beagle dog, plasma","oral, 20 mg/kg, single dose",,AUC(0-t),3340 ± 1370 ng·h/mL
CC(C)[C@H](NC(=O)CNC(=O)[C@H](CCC(N)=O)NC(=O)[C@H](C)N)C(=O)O,LC-MS/MS,"human, male, plasma","intravenous, 30 mg/kg three times daily, day 2, first dose, 10 min infusion, geometric mean",,clearance,900 mL/min/kg
CCc1cc(Nc2nc(-c3ccc(-n4cnc(C)c4)c(F)c3)cs2)c(C)cc1C(=O)O,,"dog, plasma","oral, dose not given",,share of drug-related material,> 10%
NCC(=O)N1CCC[C@H]1C(=O)N1C[C@H](O)C[C@H]1C(=O)O,potentiometric titration,,"40 °C, MAH-3 complex, with: Fe(III)",,log beta,2.51
COc1cc(NC(C)=O)c2c(c1O)-c1c(OC)c(OC)cc3c1C(C2)N(C)CC3 (centres unmarked),,rat brain homogenate,"0.5 µg/mL, 24 h, room temperature, post-preparative storage",,remaining compound,100 ± 5%
O=c1nc(NO)ccn1[C@@H]1O[C@H](CO)[C@@H](O)[C@H]1O,"RT-PCR, item: CYP3A1","rat, arthritis model, liver","oral, 80 mg/kg twice daily, 5 days",relative to: untreated arthritic rats,mRNA level,0.4 fold
C[Si](C)(C[C@@H](CN)CC(=O)O)C1CC1,neuromuscular coordination,Wistar rat male,"oral, 30 mg/kg, 3 h",,performance time,154 s
COc1ccc2cc(-c3ccc(-c4ccc(C)cn4)nc3)oc2c1,TCSPC,CHCl3,,,fluorescence lifetime,1.57 ns
COc1cc(OC)cc(C2=C3C(C)=C(I)C(C)=[N+]3[B-](F)(F)n3c(/C=C/c4cccs4)c(I)c(C)c32)c1,,DMSO,,,absorption maximum,604 nm
CN1CCC[C@]1(C)/C=C/S(=O)(=O)NC(=O)Nc1c2c(cc3c1CCC3)CCC2,,human,"oral, up to 400 mg single dose",,tolerability,not toxic
O=C([O-])CN1CCN(CC(=O)[O-])CCN(CC(=O)NCC2CCC(C(=O)NC(Cc3ccc4ccccc4c3)C(=O)NCCCCC(NC(=O)NC(CCC(=O)O)C(=O)O)C(=O)O)CC2)CCN(CC(=O)[O-])CC1.[44Sc+3] (centres unmarked),transmetallation stability,,"1 h, 37 °C, with: Fe3+ 10 mM",,intact complex,98 ± 0.8%
Cc1[nH]nc2c1N=C(c1ccccc1Cl)c1cnc(NCC(=O)O)cc1N2,,"human, feces","oral, 10 mg, 0 to 192 h",relative to: dose,excretion in feces,1.23%
C[Si]1(C[C@H](CN)CC(=O)O)CCCC1,neuromuscular coordination,Wistar rat male,"oral, 30 mg/kg, 3 h",,performance time,180 s
C=C(c1cc(F)c(C(=O)O)c(F)c1)c1cc2c(cc1C)C(C)(C)CCC2(C)C,,"Sprague-Dawley rat, male, plasma","oral, 100 mg/kg, 2 h, sesame oil vehicle",,LDL level,14 ± 6.1 mg/dL
N=C(N)NCCC[C@@H]1NC(=O)[C@H](Cc2c[nH]c3ccccc23)NC(=O)[C@@H](CC2CCCCC2)NC(=O)[C@@H]2CCCN2C(=O)[C@@H](NC(=O)CCc2ccccc2)CCCNC1=O,,"C57BL/6J mice, plasma","intravenous, 1 mg/kg",,elimination half-life,4.09 min
Cn1cc2cc1C(=O)NCCCC(=O)Nc1cn(C)c(n1)C(=O)Nc1cn(C)c(n1)C(=O)Nc1cc(n(C)c1)C(=O)Nc1cc(n(C)c1)C(=O)NC[C@H](N)CC(=O)Nc1cc(n(C)c1)C(=O)Nc1cc(n(C)c1)C(=O)Nc1cc(n(C)c1)C(=O)N2,,"C57BL/6 mice, plasma","intraperitoneal, 120 nmol/animal, 1.5 h",,injected dose in plasma,6.5%
O=C(NCCN1C(=O)C=CC1=O)[O][Pt-2]12([O]C(=O)NCCN3C(=O)C=CC3=O)([NH2+][C@@H]3CCCC[C@H]3[NH2+]1)[O]C(=O)C(=O)[O]2,,"BALB/c mouse, serum","intravenous, equimolar single dose",relative to: compound over oxaliplatin,serum AUC ratio,~25 fold
CCC(=O)NCc1cc(C(=O)NCCN2CCC(N3CCC(n4c(=O)[nH]c5ccccc54)CC3)CC2)cc(C(=O)NCCN2CCN(CCCCC3CCN(CC(=O)N4c5ccccc5NC(=O)c5ccccc54)CC3)CC2)c1,,PBS,"100 µM, 48 h, pH 7.4, 22 °C",,chemical stability,stable
COc1cc2ncnc(Oc3ccc4c(C(N)=O)c(C)oc4c3)c2cc1OC,,"human, moderate hepatic impairment, plasma","oral, dose not given, dose-normalized, metabolite",relative to: normal hepatic function,decrease in Cmax,17%
CN(C)c1ccc(-c2nc3ccc(OCCCCCN4CCN5CCN(CC4)CC(=O)[O][Al]([18F])[O]C(=O)C5)cc3s2)cc1,,"ICR mouse, blood",intravenous,relative to: 2 min over 60 min,blood clearance ratio,25.2
C#CCOc1ccc(/C=C2\SC(=O)N(CC(=O)NCc3ccccc3)C2=O)cc1,inverse Kirkwood-Buff integrals,binary solvent mixture,"298.15 K, mole fraction x1 0.55",,"Kirkwood-Buff integral G2,3",-365 cm³/mol
Cn1c(=O)oc2ccc(-c3ccc(CC(C#N)NC(=O)C4CNCCCO4)c(F)c3)cc21 (centres unmarked),,human,"oral, 10 mg once daily, treatment-related AE, multiple ascending dose",,triglycerides increased incidence,33.3%
CC12CC(c3ccc(S(C)(=O)=O)cc3)C3=C4CCC(=O)C=C4CCC3C1CCC2(O)C(F)(F)C(F)(F)F (centres unmarked),,human,"oral, 5 mg single",relative to: subjects,drug-related headache incidence,50%
Cc1cc(NC(=O)[C@H](O)c2cc(F)cc(F)c2)ccc1-c1cnc(N)c(C(=O)NC(C)C)c1,,"mouse, athymic nude Foxn1nu, female, plasma","oral, 100 mg/kg",,free Cmax,839 nM
Cc1ccc(OCC(=O)O)cc1,,"Sprague-Dawley rat, female, plasma","oral gavage, 30 mg/kg of parent drug",relative to: compound over parent drug,AUC(0-last) ratio,890
CCNC(=O)OCc1c(COC(=O)NCC)c(-c2ccc(OC)cc2)n2c1Cc1ccccc1-2,,"BALB/c nude mice, blood","dose not given, day 10",,haematocrit,43.1 ± 1.1%
F[P-](F)(F)(F)(F)F.O=C(CCC(=O)c1ccccc1)NCCN(CC(=O)Nc1ccc(C#CCN(Cc2ccccn2)Cc2ccccn2)cc1)C(=O)CCc1cn(C[c-]2cccc2)nn1.[C-]#[O+].[C-]#[O+].[C-]#[O+].[Fe+2].[Re+].c1cc[cH-]c1,,DMEM,"10 min, room temperature",,maximum solubility,50 µg/mL
COCC1CN(C2CCN(c3cc(OC)c(Nc4ncc(Br)c(Nc5ccc6c(c5P(C)(C)=O)OCCO6)n4)cc3C)CC2)C1,,human patients,"oral, dose not given",,grade ≥3 treatment-related diarrhea,3.7%
Cc1ccccc1/N=N/c1ccc(/N=N/c2c(O)ccc3ccccc23)c(C)c1,,"Sprague-Dawley rats both sexes, whole blood","oral, 50 mg/kg",,MRT(0-inf),3.41 h

# Excerpt of the above:
SMILES,assay,test system,setting,how to read,measurement,result
C[Si](C)(C[C@@H](CN)CC(=O)O)C1CC1,neuromuscular coordination,Wistar rat male,"oral, 30 mg/kg, 3 h",,performance time,154 s
COc1ccc2cc(-c3ccc(-c4ccc(C)cn4)nc3)oc2c1,TCSPC,CHCl3,,,fluorescence lifetime,1.57 ns
COc1cc(OC)cc(C2=C3C(C)=C(I)C(C)=[N+]3[B-](F)(F)n3c(/C=C/c4cccs4)c(I)c(C)c32)c1,,DMSO,,,absorption maximum,604 nm
